# Experimental data collected from several papers.
# Every numbered part comes from another study and shows a few of its results, in no order.

# Study 1
# Target: Fragile X messenger ribonucleoprotein 1, C-terminal low-complexity region (Fmr1, Mus musculus, UniProt P35922)
# Technique: RNA Bind-n-Seq
# Form: RNA
# Medium: in vitro
# Tested at: 200 nM
# Notes: whole 134-nt RNA, ends assumed
# With: 150 mM LiCl
# Baseline: input library
# Direction: higher = stronger binding
# Each molecule: 7-deaza-guanosine replaces G
# Shared flanks, not repeated: GGGAGUUCUACAGUCCGACGAUC … UGGAAUUCUCGGGUGUCAAGG
Sequence,log2 enrichment
UGGGAGUUGGAUUUUGUUUAUUUUUUUAGCUCAUUUCCAGGGGUGGGAAUUUUUUUUUAAUAUGUGUCAUGAAUAAAGUUGUUUUUGAAA,0.408
UCAAGUCCUGUGCUACACAUCGUAUGUACCGAAUCGGGUGGGAAAAAGGGAGGGAAAGUAUUAUGUUACGCCGUUCGGAUCUGCACUUCC,-0.467
UGGGAGGUGGAUUUUGUUUAUUUUUUUAGCUCAUUUCCAGGGGUGGGAAUUUUUUUUUAAUAUGUGUCAUGAAUAAAGUUGUUUUUGUAA,0.332
AGUCCUGUGCUACACAUCGUAUGUACCGAAUCGGAAAGGAAAAAAAGGAAAAAAAGGAAAGUAUUAUGUUACGCCGUUCGGAUCUGCACU,-1.39
UGGCCCUGGUGGCAUGCAGGGAGGAAGAGGUGGCCUCAUGGAUCGUGGUGGUCCCGGUGGAAUGUUCAGAGGUGGCCGUGGUGGAGACAG,0.368
GUCCUGUGCUACACAUCGUAUGUACCGAAUCGGGGAAAGGGGAAAAAAAGGGGUGGGGAAAGUAUUAUGUUACGCCGUUCGGAUCUGCAC,-0.498
CCUCAAGUCCUGUGCUACACAUCGUAUGUACCGAAUCGGUUUGGUGGAAAGGAAAGUAUUAUGUUACGCCGUUCGGAUCUGCACUUCCAG,-0.0267
CAAGUCCUGUGCUACACAUCGUAUGUACCGAAUCGGUUUUUGGUUUGGAAAAAGGAAAGUAUUAUGUUACGCCGUUCGGAUCUGCACUUC,-1.67

# Study 2
# Cell line: HEK-293T
# Read-out: pseudovirus infection
# Organism: VSV pseudotyped with SARS-CoV-2 spike
# Tested at: 10 µM
# Time: 16 h
# Baseline: vehicle-treated
SMILES,GFP-positive cells [%]
CC(=O)Oc1ccc(C(c2ccc(OC(C)=O)cc2)c2ccccn2)cc1,70.8
COC(=O)[C@@H]1CC2=CC(=O)CC[C@]2(C)[C@@]23O[C@@H]2C[C@@]2(C)[C@@H](CC[C@@]24CCC(=O)O4)[C@H]13,52.7
CC(C)c1nc(N(C)S(C)(=O)=O)nc(-c2ccc(F)cc2)c1/C=C/[C@@H](O)C[C@@H](O)CC(=O)O,91.6

# Study 3
# Target: Replicase polyprotein 1ab, main protease (rep, Severe acute respiratory syndrome coronavirus 2, UniProt P0DTD1)
# Read-out: enzyme activity
# Mode: inhibitor
# Tested at: 20 µM
# Notes: hit confirmation
Compound,inhibition [%]
CC[N+](CC)(CC)CCOc1cccc(OCC[N+](CC)(CC)CC)c1OCC[N+](CC)(CC)CC,9.1
O=[N+]([O-])c1ccc(O)c2ncccc12,55.3
O=C(Nc1cc(C(F)(F)F)ccc1O)Nc1cc(C(F)(F)F)ccc1O,-18.8
O=C1c2cccc(O)c2C(=O)c2c(O)cccc21,30.1

# Study 4
# Compound: CC(C)n1cnc(-c2ccc(F)cc2)c1-c1ncc(C(=O)Nc2ccc(N3CCN(C)CC3)cc2)[nH]1
# Technique: phase 2a clinical trial
# Measured: injury and poisoning (SOC)
# Host: idiopathic pulmonary fibrosis patients
setting,patients with TEAEs
"dose not given, grade 2, all drug arms",0%
"60 mg once daily, grade 4 maximum intensity",0%
"30 mg once daily, grade 3 maximum intensity",0%
"dose not given, grade 5, all drug arms",0%

# Study 5
# Target: Replicase polyprotein 1ab, nsp13 helicase (rep, Severe acute respiratory syndrome coronavirus 2, UniProt P0DTD1)
# Mode: inhibitor
# Tested at: 20 µM
Compound,inhibition [%]
O=C(OCCN1CCOCC1)C1(c2ccccc2)CCCCC1,-5.14
Cc1c(Cl)cccc1S(=O)(=O)Nc1nc(CC(=O)N2CCN(C)CC2)cs1,3.52
NC(=O)c1cnccn1,1.42
CCOC(=O)O[C@]1(C(=O)OCCl)CC[C@H]2[C@@H]3CCC4=CC(=O)C=C[C@]4(C)[C@H]3[C@@H](O)C[C@@]21C,3.76
Nc1nc2c(nc(Br)n2[C@@H]2O[C@@H]3COP(=O)(O)O[C@H]3[C@H]2O)c(=O)[nH]1,4.65
c1ccc2[nH]c(-c3cscn3)nc2c1,0.13
Cc1[nH]c2ccc(Cl)cc2c1C1=CCNCC1,-5.66
CCC(=O)NC[C@H](Cc1ccc(OCCc2nc(-c3ccccc3)oc2C)cc1)N/C(C)=C\C(=O)c1ccc(C(F)(F)F)cc1,2.81
C#C[C@]1(O)CC[C@H]2[C@@H]3CCC4=CC(=O)CC[C@]4(C)[C@H]3CC[C@@]21C,-2.32
C[C@H]1CCC/C=C/[C@@H]2C[C@H](O)C[C@H]2[C@H](O)/C=C/C(=O)O1,6.28
O=[N+]([O-])c1cccc2c(Br)[nH]nc12,2.42
COc1cc([C@H]2Oc3cc([C@H]4Oc5cc(O)cc(O)c5C(=O)[C@@H]4O)ccc3O[C@@H]2CO)ccc1O,8.55
COc1cc([C@@H]2c3cc4c(cc3[C@@H](O[C@@H]3O[C@@H]5CO[C@@H](C)O[C@H]5[C@H](O)[C@H]3O)[C@H]3COC(=O)[C@H]23)OCO4)cc(OC)c1O,4.18
Cc1cc(C(C)(C)C)cc(C)c1CC1=NCCN1,-6.71
CC1(C)O[C@@H]2C[C@H]3[C@@H]4CCC5=CC(=O)C=C[C@]5(C)[C@H]4[C@@H](O)C[C@]3(C)[C@]2(C(=O)CO)O1,5.9
CN(C)C(=O)Oc1ccc[n+](C)c1,0.69
CC(C)N1CCN(c2ccc(C(=O)c3c(-c4ccc(O)cc4)sc4cc(O)ccc34)cc2)CC1,3.34
Cc1[nH]nc2ccc(-c3cncc(OC[C@@H](N)Cc4ccccc4)c3)cc12,10.8
Cc1nc2ccccc2n1Cc1ccc(Cl)cc1,0.83
O=C(Nc1ccccc1)N[C@@H]1C[C@@H](C(=O)O)Nc2cc(Cl)cc(Cl)c21,3.98
O=C(NCc1ccc(F)cc1)N1CCN2C(=O)OC(c3ccccc3)(c3ccccc3)C2C1 (stereo not shown),-2.08
CC[N+](CC)(CCCNC1=CC(=O)C(NCCC[N+](CC)(CC)Cc2ccccc2)=CC1=O)Cc1ccccc1,12.5
Cn1cnc2[nH]c(=O)[nH]c(=O)c21,-4.23
Oc1ccc(Nc2nc(-c3ccc(Cl)cc3)cs2)cc1,2.14
CC(C)(C)NCC(O)c1ccccc1Cl (stereo not shown),2

# Study 6
# Target: Sal-like protein 4, full length isoform B (SALL4, Homo sapiens, UniProt Q9UJQ4-2, residues 1-616)
# Technique: universal PBM
# Form: double-stranded DNA, one strand shown
# Medium: in vitro
# Tested at: not given
# Notes: 8-mer, flanks averaged, mean of replicates
# Direction: higher = stronger binding
Sequence,E-score
CTGGCGTC,-0.191
CAGCGGTA,-0.0392
CTCAAGAG,-0.153
AGCGGTCA,-0.14
ACAACTAA,0.253
ATTAACCC,0.124
CTCTTTAC,0.0299
CAGGACAA,0.0432

# Repeated from above (study 6):
Sequence,E-score
CTGGCGTC,-0.191
CAGCGGTA,-0.0392
CTCAAGAG,-0.153
AGCGGTCA,-0.14
ACAACTAA,0.253
ATTAACCC,0.124
CTCTTTAC,0.0299
CAGGACAA,0.0432
